Measurements pooled from the literature.
Lines come from different studies, so protocols differ. Values joined by “and” are separate records of one study, mostly repeats; a detail may differ. ± marks the error that the study gave.

Structure (SMILES) | tested on | test | test system | conditions | scale | quantity | value
CNS(=O)(=O)Nc1nccc(Cc2c(C)c3ccc(Oc4ncccc4F)cc3oc2=O)c1F | HCC38 | cell viability | – | 7 days | – | IC50 | > 1 µM
O=C(N[C@@H](CCNC(=O)c1ccc([N+](=O)[O-])o1)c1nc2ccccc2[nH]1)c1ccc(-n2ccnn2)cc1 | STING1 (Homo sapiens, UniProt Q86WV6, H232R) | reporter gene, inhibitor | THP1-Dual KI-hSTING-R232 | 24 h, 1 h preincubation, with: diABZI 500 nM | – | EC50 | 21.7 µM
COc1ccccc1-c1ccncc1C(=O)Nc1nnc(OCc2ccc(Cl)cc2)s1 | – | – | Brca1 Δ11/Δ11 Polq-/- MEFs, mouse | 10 µM | – | colony survival | 73% and 93.9% and 82.2% and 54% and 76.1% and 56.9%
NC[C@@H](C(=O)Nc1ccc(-c2cn[nH]c2)cc1)c1ccccc1 | – | tonometry | NZW rabbit, magnetic bead-induced ocular hypertension | ocular, 0.03%, 2 h | – | IOP | 34.3 mmHg
CCN(CC)CC#CCNc1ccnc2cc(Cl)ccc12 | Salmonella typhimurium | mini-Ames test | TA100 | 250.0 µg/well, with rat liver S9 | – | mean revertants | 21 revertants/well
COc1cc2nc(N3CCN(C(=O)C4CCC5(CCOCC5)O4)CC3)nc(N)c2cc1OC (stereo not shown) | – | blood pressure | spontaneously hypertensive rat, male | oral, 3 mg/kg | – | time to maximum BP lowering | 120 min
CCCCCCCCCCCCCCCC(=O)OCC(CSC[C@H](N)C(=O)N[C@@H](CO)C(=O)N[C@@H](CCCCN)C(=O)N[C@@H](CCCCN)C(=O)N[C@@H](CCCCN)C(=O)N[C@@H](CCCCN)C(=O)NCCCCCC(=O)N[C@@H](CCCCN)C(=O)N[C@@H](CC(C)C)C(=O)N[C@H](C(=O)N[C@@H](Cc1ccccc1)C(=O)N[C@@H](Cc1ccccc1)C(=O)N[C@@H](Cc1ccc2ccccc2c1)C(=O)O)C(C)C)OC(=O)CCCCCCCCCCCCCCC (stereo partly shown) | – | Thioflavin S staining | APP/PS1 transgenic mouse, cortex | local cortical injection, dose not given, unit not given | baseline: injected over adjacent side | Aβ plaque level | 0.59 and 0.651 and 0.355 and 0.507 and 0.649 and 0.588 and 0.525 and 0.565
CCOC(=O)NN | – | hydrazine ligation kinetics, absorbance | – | concentration not given, 45 s, with: 2-formylphenylboronic acid | – | normalised absorbance | 0.84
COc1c(Cl)cccc1Nc1c(-c2ccncc2C#C[C@@]2(C)CCCN2C(=O)/C=C/CN(C)C)[nH]c2c1C(=O)NCC2 | – | – | female BALB/c nude mouse, sample A PDX | 25 mg/kg once daily, 28 days, EGFR ASV | – | tumour regression | 88.3%
CC(C)C[C@H](NC(=O)[C@H](Cc1ccccc1)NC(=O)[C@H](C)NC(=O)[C@@H](CS)NC(=O)CNC(=O)[C@H](N)CO)C(=O)N[C@@H](CO)C(=O)N[C@H](C(=O)N[C@@H](CCCCN)C(=O)N[C@@H](CCCCN)C(=O)N[C@@H](CCC(N)=O)C(=O)N[C@@H](Cc1ccccc1)C(=O)N[C@@H](CCC(=O)O)C(=O)N[C@@H](CCC(=O)O)C(=O)N[C@@H](CC(C)C)C(=O)N[C@H](C(=O)N[C@@H](CC(C)C)C(=O)NCC(=O)N[C@@H](CCC(=O)O)C(=O)N[C@@H](Cc1ccccc1)C(=O)N[C@@H](CC(C)C)C(=O)N[C@H](CCCCN)C(=O)N[C@H](CC(C)C)C(=O)N[C@H](CC(=O)O)C(=O)N[C@@H](CCCNC(=N)N)C(=O)N[C@H](CCCNC(=N)N)C(=O)N[C@@H](CCCNC(=N)N)C(=O)N[C@@H](CCCCN)C(=O)O)[C@@H](C)O)C(C)C | – | immunofluorescence | mouse A549 xenograft, tumour | intratumoral and intravenous, dose not given | – | ABCG2 level | decreased
O=C(NCC1OC2CCC=CCCC2O1)c1ccc(F)nc1 (stereo not shown) | – | IEDDA cycloaddition, substrate, stopped-flow spectrophotometry | water/methanol 45:55 | 0.25 mM, 298 K, with: 3,6-di(2-pyridyl)-tetrazine 0.05 mM | – | observed rate constant kobs | 78.2 ± 1.24 s⁻¹
CN1CCC[C@]1(C)/C=C/S(=O)(=O)NC(=O)Nc1c2c(cc3c1CCC3)CCC2 | – | – | human, whole blood ex vivo | 50 mg twice daily, day 14, 24 h, multiple ascending dose, with: LPS and ATP | – | IL-18 inhibition | 107%
CC[C@H](C)[C@@H](C(=O)N[C@@H](CC(C)C)C(=O)N[C@@H](CO)C(=O)N[C@@H](CO)C(=O)N[C@H](C(=O)N[C@@H](CCC(=O)O)C(=O)N[C@H](C(=O)NCC(=O)N[C@@H](CO)C(=O)NCC(=O)N[C@H](C(=O)N1C[C@H](O)C[C@H]1C(N)=O)[C@@H](C)O)C(C)C)[C@@H](C)O)N(C)C(=O)[C@H](C)NC(=O)CN(C)C(=O)[C@H](Cc1ccccc1)NC(=O)[C@H](CO)NC(=O)[C@H](CO)NC(=O)[C@H](CCCNC(=N)N)NC(=O)[C@@H](NC(=O)[C@H](CC(C)C)NC(=O)[C@H](Cc1ccccc1)NC(=O)[C@H](Cc1c[nH]cn1)NC(=O)[C@H](C)NC(=O)[C@H](CC(C)C)NC(=O)[C@H](CCCNC(=N)N)NC(=O)[C@H](CCC(=O)O)NC(=O)[C@@H](NC(=O)[C@H](C)NC(=O)[C@@H]1CSSC[C@H](NC(=O)[C@H](CCCNC(=N)N)NC(=O)CC[C@H](NC(=O)CCCCCCCCCCCCCCCCCCC(=O)O)C(=O)O)C(=O)NCC(=O)N[C@@H]([C@@H](C)O)C(=O)N[C@@H](C)C(=O)N[C@@H]([C@@H](C)O)C(=O)N1)[C@@H](C)O)[C@@H](C)O | – | – | male Sprague-Dawley rats | subcutaneous, 30 nmol/kg single dose, 96 h | – | body weight loss | 6.4 ± 0.5%
CC(C)C[C@H](NC(=O)[C@@H](CCCCNC(=O)[C@@H](Cc1ccccc1)NC(=O)CCCCCNC(=O)CN1CCN(CC(=O)O)CCN(CC(=O)O)CCN(CC(=O)O)CC1)NC(=O)[C@H](Cc1ccc(O)cc1)NC(=O)[C@H](CO)NC(=O)[C@H](Cc1c[nH]c2ccccc12)NC(=O)[C@H](Cc1c[nH]cn1)NC(=O)[C@@H]1CCC(=O)N1)C(=O)N[C@@H](CCCNC(=N)N)C(=O)N1CCC[C@H]1C(=O)NCC(N)=O [indium-111 labelled] | – | – | female athymic nude mice, brain | intravenous, 0.037 MBq, 2 h | – | tissue uptake | 0.01 %ID/g
CCOC(=S)NCc1ccc(O[C@@H]2O[C@@H](C)[C@H](O)[C@@H](O)[C@H]2O)cc1 | – | DPPH radical | – | 300 µg/mL | – | radical scavenging | 6.02 ± 2.72%
COc1cc(/C=N/N2C(=O)c3ccccc3NC2c2cc(OC)c(O)c([N+](=O)[O-])c2)cc([N+](=O)[O-])c1O (stereo not shown) | – | photosynthetic electron transport | Spinacia oleracea chloroplasts | – | – | IC50 | 234 µM
Cc1ccc(S(=O)(=O)NN)cc1 | – | hydrazine ligation kinetics, absorbance | – | concentration not given, 20 s, with: 2-formylphenylboronic acid | – | normalised absorbance | 0.745
COc1ccccc1C1CCN(CCC(=O)Nc2ccc(C)c(C)c2)CC1 | – | locomotor activity in dark | Danio rerio larvae, 7 dpf, well of 10 larvae | 10 µM, minute 7, dark | – | third-quartile larval motion | 2.3 ± 0.8 pixels/frame
CCN(CC)CC(=O)Nc1cccc(-n2cc(-c3ccc4ccc(-c5cn(-c6cccc(NC(=O)CN(CC)CC)c6)nn5)cc4c3)nn2)c1 | RCC4 | PCR angiogenesis array, measured: ANPEP | – | 5 x IC50, 4 h, normoxia | baseline: untreated | fold regulation | -1.8
COc1cc(O)ccc1CCC(c1ccc(O)cc1)c1cc2c(c(C)c1O)OC(c1ccc(O)cc1)CC2 (mixture of isomers) | – | measured: 5,15-diHETE | human whole blood | 0.3 µM, with: Escherichia coli | – | amount | 64 ± 10 pg/mL blood
COC1CN([C@H]2CC[C@H]([C@@]3(C)Oc4c(Cl)cc(C(=O)NCc5c(SC)cc(C)[nH]c5=O)c(C)c4O3)CC2)C1 | – | RNA-seq, measured: SLC9A3R2 mouse homolog | mouse, HT-1376 xenograft, whole blood | dose not given | baseline: vehicle | log2 fold change | 0.407
CC(CCC(=O)NCc1ccc(C(=O)NO)cc1)C1CCC2C3C(O)CC4CC(O)CCC4(C)C3CCC12C (stereo not shown) | – | measured: UDCA | PCK rat (Pkhd1 mutant), portal blood | oral gavage, dose not given, 5 months | baseline: total bile acids | relative abundance | 1.68%

Structure (SMILES) | tested on | test | test system | conditions | scale | quantity | value
OCc1ccc(C2NCCc3cc(O)c(O)cc32)o1 (stereo not shown) | – | DPPH scavenging, absorbance | – | 30 min, dark | – | IC50 | 14.9 µM
CN1CCCNC(=O)c2cccc(c2)C(=O)NCCCN(C)CCCNc2cccc3c2C(=O)c2cccc(c2C3=O)NCCC1 | – | – | KSN/Slc nude mice, SAS xenograft | dose not given, day 2, 48 h | – | tumour volume | 111 mm3 and 155 mm3 and 28.3 mm3 and 106 mm3
COc1cc([C@@H](O)[C@H](O)CO)ccc1O | – | DPPH radical scavenging | – | – | – | IC50 | 32.39 ± 0.18 µg/mL
CO[C@H]1CCN(Cc2c(C)cc(C)c3[nH]ccc23)[C@H](CO)C1 | – | alternative pathway C3b deposition, inhibitor | 50% mouse serum | – | – | IC50 | 1.3 ± 0.14 µM
Cc1ncsc1-c1ccc(C(C)NC(=O)C2CC(O)CN2C(=O)C(NC(=O)CCCCCCCCCCN2CCCC(Nc3ncc(Cl)c(Nc4ccccc4S(=O)(=O)C(C)C)n3)C2)C(C)(C)C)cc1 (stereo not shown) | 22Rv1 | RNA-seq, measured: SPATA2L mRNA | – | concentration not given | baseline: DMSO | log2 fold change | -1.18
N#Cc1ccc(Nc2n[nH]c3nc(-c4ccccc4)nc(N)c23)cc1 | HeLa Ohio | – | – | 72 h | – | CC50 | > 153 µM
COc1ccc(C2NCCc3cc(O)c(O)cc32)cc1 (stereo not shown) | – | DPPH scavenging, absorbance | – | 30 min, dark | – | IC50 | 24.4 µM
CC(=O)[O-].O.O.[O-]c1ccc(Br)cc1C=NCCN1CCOCC1.[Zn+2] | – | nitric oxide scavenging | – | 200 µM | – | inhibition | 41.8%
C[C@@H]1O[C@@H](OC[C@H]2O[C@@H](Oc3c(-c4ccc(O)cc4)oc4cc(O)cc(O)c4c3=O)[C@H](O[C@@H]3O[C@@H](C)[C@H](O)[C@@H](O)[C@H]3O)[C@@H](O)[C@@H]2O)[C@H](O)[C@H](O)[C@H]1O | – | Oil Red O | 3T3-L1, mouse | 5 µM, day 8 | baseline: vehicle | lipid accumulation | 61.3 ± 8.5%
COc1ccc(N2CCN(CC(O)COc3ccc4ccccc4c3)CC2)cc1 (stereo not shown) | – | locomotor activity in dark | Danio rerio larvae, 7 dpf, well of 10 larvae | 10 µM, minute 1, dark | – | third-quartile larval motion | 4.5 ± 0.8 pixels/frame
NNC(=O)Cc1ccccc1 | – | hydrazine ligation kinetics, absorbance | – | concentration not given, 25 s, with: 2-formylphenylboronic acid | – | normalised absorbance | 0.612
C=CC(=O)Nc1cccc(Cn2ncc3cnc(Nc4cnn(CCOC)c4)nc32)c1 | human CDK4-cyclinD1 | KINOMEscan | – | 100 nM | baseline: control | binding | 78%
COc1cccc(OCC(O)CN2CCN(c3ccccc3OC)CC2)c1 (stereo not shown) | – | locomotor activity in dark | Danio rerio larvae, 7 dpf, well of 10 larvae | 10 µM, minute 5, dark | – | third-quartile larval motion | 10 ± 2 pixels/frame
Nc1ncc(-c2cc(-c3cnn(CC(F)(F)F)c3)ncc2F)nc1C(=O)NC1CNCC(F)C1 (stereo not shown) | CSNK2A1 | KINOMEscan | – | 1 µM | baseline: DMSO control | remaining binding | 100%
OC(COCC1COc2ccccc2O1)CN1CCN(c2ccccc2)CC1 (stereo not shown) | – | locomotor activity in dark | Danio rerio larvae, 7 dpf, well of 10 larvae | 10 µM, minute 3, dark | – | third-quartile larval motion | 2 ± 0.7 pixels/frame
Cc1nn(-c2cccc(N)c2)c(=O)c2cnc(Nc3ccc(N4CCNCC4)cc3)nc12 | PRKCH (Homo sapiens, UniProt P24723) | enzyme activity, inhibitor | – | – | – | IC50 | > 10 µM
CC(C)OC(=O)[C@H](CO)NCc1cc(Cl)c(OCc2cccc(-c3ccccc3)c2Br)cc1OCc1cccnc1 | – | – | hPD-L1 MC-38 tumour, humanised hPD-1 C57BL/6 mouse | oral, 10 mg/kg × 21, day 20 | baseline: vehicle | tumour volume T/C | 31.7%
Cc1cccc(C)c1CNc1cc(C(=O)N2CCC2)cn2c(C)c(C)nc12 | – | gastric acid secretion | dog Heidenhain pouch | oral, 5 mg/kg, 24 h after dosing, with: histamine | – | inhibition | 80.7%
CN(C)C(=O)c1ccnc(N2Cc3cn(Cc4ccc(F)cc4F)nc3C2)n1 | – | immunohistochemistry, measured: NeuN neuron density | mouse cuprizone diet, corpus callosum | dose not given, unit not given | baseline: healthy control | Cohen's d effect size | -0.16
CN(Cc1ccccc1)C(=O)CN1CCN(CC(=O)[O-])CCN(Cc2cccc(C(=O)[O-])n2)CC1.[18F-].[Sc+3] | – | – | mouse, lung | intravenous, 1 h | – | tracer uptake | 0.23 %ID/g
CCOC(=O)C1CCN(CCC(=O)Nc2ccccc2F)CC1 | – | locomotor activity in dark | Danio rerio larvae, 7 dpf, well of 10 larvae | 10 µM, minute 7, dark | – | third-quartile larval motion | 0 pixels/frame

For quick reference, copied from above:
Structure (SMILES) | tested on | test | test system | conditions | scale | quantity | value
COc1cc(/C=N/N2C(=O)c3ccccc3NC2c2cc(OC)c(O)c([N+](=O)[O-])c2)cc([N+](=O)[O-])c1O (stereo not shown) | – | photosynthetic electron transport | Spinacia oleracea chloroplasts | – | – | IC50 | 234 µM
CCOC(=O)NN | – | hydrazine ligation kinetics, absorbance | – | concentration not given, 45 s, with: 2-formylphenylboronic acid | – | normalised absorbance | 0.84
